# Assay results from different studies.
# Numbered parts are unrelated; each lists some results of a single study.
# UniProt P18825, sequence (whole entry, looked up): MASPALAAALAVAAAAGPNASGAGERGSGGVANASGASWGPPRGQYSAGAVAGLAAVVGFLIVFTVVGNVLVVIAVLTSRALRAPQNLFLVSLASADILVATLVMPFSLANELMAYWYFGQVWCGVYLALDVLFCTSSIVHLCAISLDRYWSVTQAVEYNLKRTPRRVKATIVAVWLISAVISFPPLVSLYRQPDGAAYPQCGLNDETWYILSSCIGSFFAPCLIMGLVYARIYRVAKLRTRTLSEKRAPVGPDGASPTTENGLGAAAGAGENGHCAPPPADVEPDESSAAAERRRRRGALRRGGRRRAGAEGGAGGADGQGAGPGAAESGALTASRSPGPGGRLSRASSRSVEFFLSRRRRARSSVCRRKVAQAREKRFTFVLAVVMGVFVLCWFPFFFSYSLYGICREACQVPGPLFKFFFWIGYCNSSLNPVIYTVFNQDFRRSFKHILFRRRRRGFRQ
# UniProt Q5XXA6, sequence (whole entry, unmodified, looked up): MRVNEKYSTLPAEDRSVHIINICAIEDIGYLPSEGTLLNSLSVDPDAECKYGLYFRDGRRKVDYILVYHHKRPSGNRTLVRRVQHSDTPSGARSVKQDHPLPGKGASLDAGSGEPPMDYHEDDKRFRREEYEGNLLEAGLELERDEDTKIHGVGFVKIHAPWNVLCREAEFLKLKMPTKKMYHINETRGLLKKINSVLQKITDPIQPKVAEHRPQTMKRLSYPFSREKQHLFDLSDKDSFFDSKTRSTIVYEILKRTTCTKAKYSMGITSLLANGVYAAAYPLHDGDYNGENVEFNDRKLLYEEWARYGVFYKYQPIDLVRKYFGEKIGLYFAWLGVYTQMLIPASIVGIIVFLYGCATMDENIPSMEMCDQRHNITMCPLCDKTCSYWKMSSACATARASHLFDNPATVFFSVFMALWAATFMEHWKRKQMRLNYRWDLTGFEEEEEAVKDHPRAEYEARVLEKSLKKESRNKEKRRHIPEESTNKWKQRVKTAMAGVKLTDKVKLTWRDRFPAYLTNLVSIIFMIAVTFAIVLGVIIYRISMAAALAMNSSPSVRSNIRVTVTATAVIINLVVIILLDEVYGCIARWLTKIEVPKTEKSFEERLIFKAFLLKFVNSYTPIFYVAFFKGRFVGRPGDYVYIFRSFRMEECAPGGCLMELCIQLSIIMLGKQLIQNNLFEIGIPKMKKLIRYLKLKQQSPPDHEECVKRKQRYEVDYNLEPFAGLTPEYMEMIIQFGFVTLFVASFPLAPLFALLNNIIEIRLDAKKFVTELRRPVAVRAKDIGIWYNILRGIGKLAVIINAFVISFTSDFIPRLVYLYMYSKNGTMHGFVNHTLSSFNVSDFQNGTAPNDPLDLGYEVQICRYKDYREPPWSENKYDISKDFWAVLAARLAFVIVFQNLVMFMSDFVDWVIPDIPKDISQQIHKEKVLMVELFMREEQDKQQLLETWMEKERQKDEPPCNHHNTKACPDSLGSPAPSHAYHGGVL

# Set 1
# Target: Interferon regulatory factor 7, full length, phosphomimetic (IRF7, Homo sapiens, UniProt Q92985, residues 1-503, S471D/S472D/S475D/S476D/S477D/S483D/S484D/S487D)
# Technique: protein-binding microarray
# Molecule type: double-stranded DNA, one strand shown
# Medium: in vitro
# Concentration: 2200 nM top
# Notes: 60-bp whole probe
# Together with: salmon DNA 0.4 mg/ml
# Relative to: random background probes
# Reading: higher = stronger binding
# All sequences stand within: GCCTAGCAC … GTGCTAGGTCTTGATTCGCTTGACGCTGCTG
# Residues (chain): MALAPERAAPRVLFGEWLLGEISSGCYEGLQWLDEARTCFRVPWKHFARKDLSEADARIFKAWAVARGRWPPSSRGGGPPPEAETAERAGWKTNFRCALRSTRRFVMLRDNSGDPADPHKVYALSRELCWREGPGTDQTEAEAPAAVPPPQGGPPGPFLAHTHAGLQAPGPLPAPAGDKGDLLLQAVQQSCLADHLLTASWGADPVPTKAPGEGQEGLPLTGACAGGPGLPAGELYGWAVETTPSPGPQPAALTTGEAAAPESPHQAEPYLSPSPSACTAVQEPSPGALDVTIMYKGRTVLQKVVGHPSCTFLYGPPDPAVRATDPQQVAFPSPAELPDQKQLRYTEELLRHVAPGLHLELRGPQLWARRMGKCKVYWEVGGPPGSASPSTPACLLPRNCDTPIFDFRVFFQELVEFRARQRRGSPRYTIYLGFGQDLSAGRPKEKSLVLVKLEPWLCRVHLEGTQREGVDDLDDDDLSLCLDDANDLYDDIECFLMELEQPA
Strand,fitted relative affinity
TTACGTTTCCTTTCCCTTTA,6.91 z-score
CTCTGCTTGCGTCTGGGTGT,0.494 z-score
GCCTACTCGCTCGTCCGGAG,0.257 z-score
GACGGTTTCGGTTCCGGGAA,11.7 z-score
ATGAGCTTCAAACCATAACC,-0.0898 z-score
TTCTCTTTCACTGCTGCCCT,2.76 z-score
GACGGTTCCCTTTTCCTGAG,2.35 z-score
GACGGTATCCTACTGGTGAC,0.216 z-score

# Set 2
# Target: RING finger protein unkempt homolog, zinc fingers 1-6, GST-SBP tag (UNK, Homo sapiens, UniProt Q9C0B0, residues 30-357)
# UniProt Q9C0B0, sequence (30-357, looked up): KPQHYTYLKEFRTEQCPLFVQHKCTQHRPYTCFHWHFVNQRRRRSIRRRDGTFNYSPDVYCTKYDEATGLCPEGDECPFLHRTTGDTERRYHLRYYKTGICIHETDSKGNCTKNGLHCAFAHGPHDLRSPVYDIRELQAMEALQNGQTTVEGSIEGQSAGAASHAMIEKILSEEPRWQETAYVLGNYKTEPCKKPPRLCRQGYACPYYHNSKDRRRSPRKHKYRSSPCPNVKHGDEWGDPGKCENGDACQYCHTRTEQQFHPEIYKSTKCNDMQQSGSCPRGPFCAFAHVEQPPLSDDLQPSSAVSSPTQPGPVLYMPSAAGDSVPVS
# Technique: RNA Bind-n-Seq
# Molecule type: RNA
# Medium: in vitro
# Concentration: not given
# Notes: RNA with constant flanks, human and mouse sites, ends assumed
# Relative to: input RNA pool
# Reading: higher = stronger binding
# All sequences stand within: GGGAGUUCUACAGUCCGACGAUC … CAACAGAGGAUUGAGCAUCA
Strand,bound/input enrichment [ratio]
AAAAAUGGAGACAAACAAGAUCUUUGAUGUGUUUCAUGUUUGUGGGCAGGUGAACAAUAUUUUAGAGUAUUUUAAAAAAUCAUUUCUUACAGAGAAAUUAAUUUGCAGUUGAAUGAAAGC,18.3
UCUGCUGUGCUGGAGAUCAUCUUUAAGGGCAAAGGAGUUGGAUUGCUGAAUUACAAUGAAACAUGUCUUAUUACUAAAGAAAGUGAUUUACUCCUGGUUAGUACAUUCUCAGAGGAUUCU,2.04
CCUUCUCCUUCAAGUGGUGGGACCGUCAAAAGCGACAAAGCAAAAACAAAGCCACCGCUUCAAGUAACAAAGGUAGACAAUAAUUUGACAGUAGAGAAAGCCACCAAGAAAACAGUUGUU,0.589
UAAAUAUAGGCCUUGUUAUCUCAAAAAACAGAUCUGGUUCAAACUUAUUAUACCAAUAUCAUACUAUUUAAAUGUUCUAAGUAAACAAGCCAUGUGAGCAUCAAGUGGCAUUGGCUCUUU,0.694
GUUCCCAAUGUUUCUCACAAUGUUGCCUUGAAAGUCAGUGUUCAGUCCUUGCCCAGACAAUCUAAUUAUCCAGUUUUGACGUGCAGUAUUCACACUAAUAUUGGCCUUUAUGAGAAAAGA,0.204
GCAGUCUUGUACUGUGACCUAAGAACAAAACUGUAACUGCAUUAGAAACCAUGAAAAAAUUAGAUAUUGUUUUGUGACUUUUAGACAGUGGUAAAUAUAGAACCAUGAAUUCUGGUCACA,316
CUGAUGCCGAUUGUGUACACGCCAACAGUUGGUCUUGCCUGCUGUCAAUAUGGGCACAUCUUUAGGAGACCUAAGGGAUUGUUUAUUUCAAUCUCAGACAGAGGUCAUGUUAGAUCAAUU,0.569
GAGAAGAUUAUCUGUAAUUUAAAGCCGGCUUUAAAGCUUCGUCUUCGAUUCAUCACGCACAUUAGCAAGAUGGAGCCGGCAGUGCCACCCCAGGCCCUCAACAGCGGGUCUCCAGCACCU,0.152

# Further values, each from its own experiment
Structure (SMILES),target,test,setting,quantity,value
O=C(NNS(=O)(=O)c1ccccc1)c1cc(-c2ccnnc2)ccc1F,"ADRA2C (Homo sapiens, UniProt P18825)",cell-free assay,10 µM,inhibition,-5.42%
C=CCc1ccc(O)c(-c2ccc(O)c(CC=C)c2)c1,"Anoctamin-1 (ANO1, Homo sapiens, UniProt Q5XXA6, del476-501)","chloride current, whole-cell voltage clamp","membrane voltage 80 mV, together with: 300 nM Ca2+",IC50,4.85 µM
